# Assay results collected from several papers.
# Protocols differ between the studies behind these lines. ± marks the error that the study gave.
Compound,organism,test,system,conditions,scale,measurement,value
OC[C@H]1O[C@@H]([Se]Cc2cccc3c(C[Se][C@@H]4O[C@H](CO)[C@H](O)[C@H](O)[C@H]4O)cccc23)[C@H](O)[C@@H](O)[C@H]1O,Trypanosoma brucei,"parasite growth, flow cytometry",,"5 µM, 24 h",,viability,96%
CCn1c2ccccc2c2cc(/C=N/NC(=O)Cn3ccc(=O)c4ccccc43)ccc21,Sclerotinia sclerotiorum,microbial growth,,50 µg/mL,,inhibition,43.9%
CN1CC(=O)N=C1N.C[C@H](CCC(=O)O)[C@H]1CC[C@H]2[C@@H]3[C@@H](O)C[C@@H]4C[C@H](O)CC[C@]4(C)[C@H]3CC[C@]12C,Bacillus cereus,,TISTR 035,"1 mg per disc, 18 to 24 h, 37 °C, 6 mm disc",,inhibition zone diameter,8.1 ± 1 mm
CC[C@H](C)[C@H](NC(=O)[C@H](CCCCN)NC(=O)[C@H](CCCCN)NC(=O)[C@H](CC(C)C)NC(=O)[C@H](CCCCN)NC(=O)[C@H](CCC(=O)O)NC(=O)[C@H](CCCCN)NC(=O)[C@@H](NC(=O)[C@H](CCCCN)NC(=O)[C@H](CC(N)=O)NC(=O)[C@H](CCCNC(=N)N)NC(=O)[C@H](Cc1ccccc1)NC(=O)[C@H](CCCCN)NC(=O)[C@H](CCCNC(=N)N)NC(=O)[C@H](CC(C)C)NC(=O)[C@H](CCCNC(=N)N)NC(=O)[C@H](CCCCN)NC(=O)[C@H](CCCNC(=N)N)NC(=O)[C@H](CC(C)C)NC(=O)[C@@H](N)CC(C)C)[C@@H](C)CC)C(=O)NCC(=O)N[C@@H](CCC(N)=O)C(=O)N[C@@H](CCCCN)C(=O)N[C@H](C(=O)N[C@@H](CCC(N)=O)C(=O)NCC(=O)N[C@@H](Cc1ccccc1)C(=O)N[C@H](C(=O)N1CCC[C@H]1C(=O)N[C@@H](CCCCN)C(=O)N[C@@H](CC(C)C)C(=O)N[C@H](C(=O)N1CCC[C@H]1C(=O)N[C@@H](CCCNC(=N)N)C(=O)N[C@H](C(=O)N[C@@H](CCC(=O)O)C(=O)N[C@@H](CO)C(=O)O)[C@@H](C)O)C(C)C)C(C)C)[C@@H](C)CC,Streptomyces scabiei,inhibition zone,CGMCC 4.176,"LB agar, overnight",,lethal concentration,8.93 µM
CC[P+](CC)(CC)[Au-][S][C@@H]1O[C@H](COC(C)=O)[C@@H](OC(C)=O)[C@H](OC(C)=O)[C@H]1NC(C)=O,Enterococcus faecium,,ATCC 700221,concentration not given,reference: auranofin,fold activity enhancement,2 to 4
CCC(NC(=O)NNS(=O)(=O)c1ccc(C)cc1)(C(F)(F)F)C(F)(F)F,human respiratory syncytial virus,,HEp-2,concentration not given,,antiviral activity,inactive
OC[C@H]1O[C@@H](O[C@H]2[C@H](O)[C@@H](O)[C@H](SCc3ccc(CS[C@@H]4O[C@H](CO)[C@@H](O[C@@H]5O[C@H](CO)[C@H](O)[C@H](O)[C@H]5O)[C@H](O)[C@H]4O)c4ccccc34)O[C@@H]2CO)[C@H](O)[C@@H](O)[C@H]1O,Trypanosoma brucei,"parasite growth, flow cytometry",,"5 µM, 24 h",,viability,91.1%
NNC(=O)/C=C/c1ccc(N)cc1,Aedes aegypti,larvicidal activity,third instar larvae,24 h,,LC90,306 ppm
C[C@@H]1C[C@H](Nc2ccccc2)c2cc(F)ccc2N1C(=O)c1ccc(F)cc1,Aedes albopictus,,,"1 µM, 72 h, second-instar larvae",reference: Abbott-corrected control,mortality,27 ± 11%
CC[C@@H](C)[C@@H](NC(=O)[C@@H](C)NC(=O)[C@@H](CCCCN)NC(=O)[C@@H](CC(C)C)NC(=O)[C@@H](C)NC(=O)[C@H](NC(=O)[C@@H](Cc1c[nH]cn1)NC(=O)[C@@H](CC(C)C)NC(=O)[C@H](NC(=O)[C@H](NC(=O)[C@@H](CCCCN)NC(=O)[C@@H](CCCCN)NC(=O)[C@@H](C)NC(=O)[C@@H](CO)NC(=O)[C@@H](CCCCN)NC(=O)[C@@H](Cc1ccccc1)NC(=O)[C@H](NC(=O)[C@@H](CCCCN)NC(=O)[C@@H](CC(C)C)NC(=O)[C@@H](Cc1ccccc1)NC(=O)[C@@H](CO)NC(=O)[C@@H](CCCCN)NC(=O)[C@@H](Cc1c[nH]c2ccccc12)NC(=O)[C@@H](CCCCN)NC(C)=O)[C@H](C)O)[C@H](C)O)C(C)C)[C@H](C)O)C(=O)N[C@H](CO)C(=O)N[C@H](CO)C(N)=O,Scedosporium prolificans,,clinical isolate,"48 h, 30 °C",,MIC90,50 µg/mL
Nc1ccn(C[C@@H](CO)OCP(=O)(O)OCCCS(=O)(=O)CCCCCCCCCCCCCC2CCC2)c(=O)n1,human betaherpesvirus 5,cytopathic effect,AD169,,reference: CC50 over EC50,selectivity index,> 19
Nc1ncnc2c1c(F)cn2[C@@H]1O[C@H](CO)[C@@H](O)[C@H]1O,Trypanosoma congolense,"parasite growth, resazurin",,72 h,,EC50,450 nM
CC[C@H](C)[C@H](NC(=O)[C@H](Cc1c[nH]c2ccccc12)NC(=O)[C@H](CCCNC(=N)N)NC(=O)[C@H](CCC(N)=O)NC(=O)[C@@H](NC(=O)[C@H](Cc1c[nH]c2ccccc12)NC(=O)[C@H](CCCNC(=N)N)NC(=O)[C@H](CCCNC(=N)N)NC(=O)[C@H](C)NC(=O)[C@H](C)NC(=O)[C@H](C)NC(=O)[C@@H](NC(=O)[C@H](CCCCN)NC(=O)[C@@H]1CCCN1C(=O)[C@H](CCCNC(=N)N)NC(=O)[C@H](Cc1c[nH]c2ccccc12)NC(=O)[C@H](CCCNC(=N)N)NC(=O)[C@H](CCCNC(=N)N)NC(=O)[C@@H](NC(=O)[C@H](Cc1c[nH]c2ccccc12)NC(=O)[C@H](CCCNC(=N)N)NC(=O)[C@H](CCC(N)=O)NC(=O)[C@@H](NC(=O)[C@H](Cc1c[nH]c2ccccc12)NC(=O)[C@H](CCCNC(=N)N)NC(=O)[C@@H](N)CCCNC(=N)N)C(C)C)[C@@H](C)CC)C(C)C)C(C)C)C(=O)N[C@@H](CCCNC(=N)N)C(=O)N[C@@H](CCCNC(=N)N)C(=O)N[C@@H](Cc1c[nH]c2ccccc12)C(=O)N[C@@H](CCCNC(=N)N)C(=O)N1CCC[C@H]1C(=O)N[C@@H](CCCCN)C(=O)N[C@H](C(N)=O)C(C)C,Talaromyces,,,"25 °C, metabolic activity and growth",,inhibitory concentration,0.625 µM
C[C@@](O)(C(F)F)[C@H](NC(=O)c1ccc(C#CC#CC2CC2)cc1)C(=O)NO,Enterobacteriaceae,,"ESBL, carbapenemase negative",,,MIC90,0.125 µg/mL
COc1ccc(C(=O)N2c3ccc(F)cc3[C@@H](Nc3ccccc3)C[C@H]2C)cc1,Aedes albopictus,,,"1 µM, 72 h, second-instar larvae",reference: Abbott-corrected control,mortality,41 ± 9%
CON(C(=O)c1cn(C)nc1C(F)F)C(C)Cc1c(Cl)cc(Cl)cc1Cl (centres unmarked),Sclerotinia sclerotiorum,microbial growth,,1.56 µg/mL,,inhibition,75.7%
C[C@@H]1C[C@H](Nc2ccccc2)c2cc(F)ccc2N1C(=O)c1ccc(C#N)c(F)c1,Aedes albopictus,,second-instar larvae,72 h,,LC50,224 nM
O=C1/C(=N\NC(=S)NN=Cc2cccs2)c2ccccc2N1Cc1ccccc1,Coxsackievirus B4,viral replication,Vero,,,EC50,> 20000 nM
CC(=O)CCC1C(=O)NC(C(C)C)C(=O)NC(Cc2cc(O)cc(F)c2)C(=O)N2CCCC(N2)C(=O)OC(C(C)=CC=CC(=O)N2CCCCO2)CC=CC=CC(O)C(C)C1O (centres unmarked),hepatitis B virus,"viral replication, item: HBeAg",HBV stable cell line,,,IC50,350 nM
CC[C@H](C)[C@H](NC(=O)[C@H](CO)NC(=O)[C@H](CO)NC(=O)[C@H](Cc1ccccc1)NC(=O)CN)C(=O)N[C@@H](Cc1ccccc1)C(=O)N[C@@H](CCCNC(=N)N)C(N)=O,Escherichia coli,,ATCC 8739,10% FBS,,MBC,> 128 µM
O=C(Cc1csc2nc(-c3ccc(Br)cc3)cn12)NN=C1CCCC1,herpes simplex virus 2,"viral cytopathicity, microscopy",HEL,,,EC50,> 100 µg/mL
COc1ccc(Br)cc1/C=N/NC(=O)Cn1ccc(=O)c2ccccc21,Tobacco mosaic virus,"viral infectivity, in vivo plant",,500 µg/mL,,inactivation activity,7.4 ± 2.1%
S=C(NCc1ccccn1)NCc1ccccn1,Proteus vulgaris,"microbial growth, well diffusion",,10 µg/mL,,inhibition zone,12 mm
O=C(C1CCN(c2nnnn2-c2ccccc2)CC1)N1CCCc2ccccc21,Plasmodium falciparum,parasite growth,DD2,"72 h, drug-resistant strain, blood stage",,IC50,720 nM
C[C@@H]1C[C@H](Nc2ccccc2)c2cc(F)ccc2N1C(=O)c1ccc(Cl)c(F)c1,Aedes albopictus,,second-instar larvae,72 h,,LC50,200 nM
CC[C@H](C)[C@H](NC(=O)[C@H](CCCCN)NC(=O)[C@H](CCCCN)NC(=O)[C@H](CC(C)C)NC(=O)[C@H](CCCCN)NC(=O)[C@H](CCC(=O)O)NC(=O)[C@H](CCCCN)NC(=O)[C@@H](NC(=O)[C@H](CCCCN)NC(=O)[C@H](CC(N)=O)NC(=O)[C@H](CCCNC(=N)N)NC(=O)[C@H](Cc1ccccc1)NC(=O)[C@H](CCCCN)NC(=O)[C@H](CCCNC(=N)N)NC(=O)[C@H](CC(C)C)NC(=O)[C@H](CCCNC(=N)N)NC(=O)[C@H](CCCCN)NC(=O)[C@H](CCCNC(=N)N)NC(=O)[C@@H](N)CC(C)C)[C@@H](C)CC)C(=O)NCC(=O)N[C@@H](CCC(N)=O)C(=O)N[C@@H](CCCCN)C(=O)N[C@H](C(=O)N[C@@H](CCC(N)=O)C(=O)NCC(=O)N[C@@H](Cc1ccccc1)C(=O)N[C@H](C(=O)N1CCC[C@H]1C(=O)N[C@@H](CCCCN)C(=O)N[C@@H](CC(C)C)C(=O)O)C(C)C)[C@@H](C)CC,Streptomyces scabiei,inhibition zone,CGMCC 4.176,"LB agar, overnight",,lethal concentration,3.1 µM
Cc1cn(C2CC(N(C)C)C(CO)O2)c(=O)[nH]c1=O (centres unmarked),herpes simplex virus 2,viral replication,"HEL, G",,,EC50,> 370 nM
CCCCCCCCC1=C(CCCCCCCC(=O)O)C1,Toxoplasma gondii,,"Vero, RH",,reference: CC50 over EC50,selectivity index,5.9
COc1cc(O)cc(/C=C/c2ccccc2)c1,Streptococcus mutans,microbial growth,,,,MIC50,546 µM
COc1ccccc1-c1n[nH]c2nc(N[C@H]3CC[C@H](NS(=O)(=O)CC(C)C)CC3)ncc12,Leishmania donovani,parasite growth,,promastigote,,EC50,6.31 nM
CC[C@H](C)[C@H](NC(=O)[C@H](CCCNC(=N)N)NC(=O)[C@@H]1CCCN1C(=O)[C@@H](NC(=O)[C@H](CO)NC(=O)[C@H](CCCCN)NC(=O)[C@H](CO)NC(=O)[C@H](CCC(N)=O)NC(=O)[C@H](CCCCN)NC(=O)[C@H](CC(C)C)NC(=O)[C@H](Cc1ccccc1)NC(=O)[C@H](Cc1ccccc1)NC(=O)[C@H](CC(N)=O)NC(=O)[C@H](CCC(=O)O)NC(=O)[C@H](Cc1ccccc1)NC(=O)[C@H](CC(=O)O)NC(=O)CN)C(C)C)C(N)=O,Aedes aegypti,agonist,pharate pupae,"injection, 10 fmol, 9-12 h before ecdysis",,ecdysis contraction duration,~10 min
O=[N+]([O-])c1ccc(/C=N/N=C/c2ccc(O)cc2)s1,Trypanosoma congolense,,"IL3000, mouse","oral, 100 mg/kg daily for 7 days, from day 4 post-infection",,day of death,9 days post-infection
CS(=O)(=O)c1ccc(/C=N/NC(=O)Cn2ccc(=O)c3ccccc32)cc1,Tobacco mosaic virus,"viral infectivity, in vivo plant",,500 µg/mL,,inactivation activity,32.7 ± 3.8%
Cc1cc(N2CCC(C#N)(C3(C)CC3)C2=O)cc(C(=O)NCc2cc(F)cc(-c3cnn(C)c3)c2)n1 (racemic),Plasmodium falciparum,,,concentration not given,,day of recrudescence,18 days
CCCCCCC(CC=CCCCCCCCC(=O)OCCOCn1cnc2c(=O)[nH]c(N)nc21)OC(=O)CCCCC1SCC2NC(=O)NC21 (centres unmarked),herpes simplex virus 2,"viral replication, plaque reduction","HFF, MS",,,EC90,11400 nM

# Excerpt of the above:
Compound,organism,test,system,conditions,scale,measurement,value
CC[C@H](C)[C@H](NC(=O)[C@H](CO)NC(=O)[C@H](CO)NC(=O)[C@H](Cc1ccccc1)NC(=O)CN)C(=O)N[C@@H](Cc1ccccc1)C(=O)N[C@@H](CCCNC(=N)N)C(N)=O,Escherichia coli,,ATCC 8739,10% FBS,,MBC,> 128 µM
O=C(Cc1csc2nc(-c3ccc(Br)cc3)cn12)NN=C1CCCC1,herpes simplex virus 2,"viral cytopathicity, microscopy",HEL,,,EC50,> 100 µg/mL
